Measurements from different studies.
Parts stem from different laboratories: compare values within a part only. Changes are numbered by the printed parent chain.

Set 1 — target: CCNB1, cyclin fold, Cln2 fusion (human); method: yeast growth competition, sequencing; medium: yeast; notes: strong parent motif; relative to: not given; reading: higher = stronger binding; quantity: normalised enrichment score
Starting sequence: DNAH7 docking peptide (human); HELFQRLDFDNDG
D8A: 0.597
D12A: 1.52
Q5A: 1.7
D10A: 0.304
L3A: 0.476
R6A: 1.13

Set 2 — target: NFE2L1, bZIP domain (human); method: DHFR protein complementation; medium: yeast; relative to: wild-type JUN-FOS pair; reading: higher = stronger binding; quantity: binding fitness
Notes: single substitutions, most at no-binding floor
Starting sequence: JUN, bZIP domain (human); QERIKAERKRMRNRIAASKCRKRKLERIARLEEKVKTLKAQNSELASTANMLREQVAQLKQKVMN; partner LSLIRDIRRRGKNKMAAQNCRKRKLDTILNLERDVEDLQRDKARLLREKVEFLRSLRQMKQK
N42R: -1.45 natural log
N42F: -1.48 natural log
N42Y: -1.51 natural log
A49N: -1.42 natural log
A46D: -1.54 natural log
M51S: -1.27 natural log
E44N: -1.59 natural log
T48I: -1.53 natural log
Q55G: -1.46 natural log
S43E: -1.45 natural log
K36V: -1.46 natural log
E54T: -1.54 natural log
A46S: -1.44 natural log
E44T: -1.55 natural log
Q41L: -1.56 natural log
T37K: -1.45 natural log

Set 3 — target: UBE2J1 UBC core domain (UniProt Q9Y385); method: yeast two-hybrid; medium: yeast; notes: mostly zero background; relative to: not given; reading: higher = stronger interaction; quantity: lacZ reporter activity
B1: PHF21A RING domain (UniProt Q96BD5); chain SPTSTDGDIHEDFCSVCRKSGQLLMCDTCSRVYHLDCLDPPLKTIPKGMWICPRCQDQMLKKEEAIPW
B2: TRIM63 RING domain (UniProt Q969Q1); chain PMENLEKQLICPICLEMFTKPVVILPCQHNLCRKCANDIFQAANPYWTSRGSSVSMSGGRFRCPTCRHEVIMDRHGV
B3: TRIM72 RING domain (UniProt Q6ZMU5); chain APGLLHQELSCPLCLQLFDAPVTAECGHSFCRACLGRVAGEPAADGTVLCPCCQAPTRPQALST
B4: TRIM69 RING domain (UniProt Q86WT6); chain VIQDITMELHCPLCNDWFRDPLMLSCGHNFCEACIQDFWRLQAKETFCPECKMLCQYNNCTF
Construct (chain): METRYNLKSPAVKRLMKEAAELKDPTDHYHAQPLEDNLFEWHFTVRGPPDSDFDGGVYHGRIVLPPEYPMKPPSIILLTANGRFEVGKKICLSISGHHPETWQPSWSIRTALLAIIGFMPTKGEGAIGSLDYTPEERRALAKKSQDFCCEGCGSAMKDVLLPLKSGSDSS
VTLSLTLPITCHICLGKVRQPVICINNHVFCSICIDLWLKNNSQCPACRVPITPENPCK (OBI1 RING domain (UniProt Q5W0B1)): 0
B1 (PHF21A RING domain): 0
RLTMMWEEVTCPICLDPFVEPVSIECGHSFCQECISQVGKGGGSVCPVCRQRFLLKNLRP (TRIM21 RING domain (UniProt P19474)): 0
B2 (TRIM63 RING domain): 0
B3 (TRIM72 RING domain): 0
B4 (TRIM69 RING domain): 0
QHHELTSLFECPVCFDYVLPPILQCQAGHLVCNQCRQKLSCCPTCRGALTPSIRNL (SIAH2 RING domain (UniProt O43255)): 0
QLRRLQEERTCKVCMDKEVSVVFIPCGHLVVCQECAPSLRKCPICRGIIKGTVRTF (BIRC2 RING domain (UniProt Q13490)): 0
FPEHFVKSISCQICEHILADPVETNCKHVFCRVCILRCLKVMGSYCPSCRYPCFPTDLES (RAG1 RING domain (UniProt P15918)): 0
PEELQAMDNVCIICREEMVTGAKRLPCNHIFHTSCLRSWFQRQQTCPTCRMDVLRASLPA (SYVN1 RING domain (UniProt Q86TM6)): 0
YWAMDSTFELCKICAESNKDVKIEPCGHLLCSCCLAAWQHSDSQTCPFCRCEIKGWEAVS (CBLC RING domain (UniProt Q9ULV8)): 0
DAIPSLSECQCGICMEILVEPVTLPCNHTLCKPCFQSTVEKASLCCPFCRRRVSSWTRYH (RNF168 RING domain (UniProt Q8IYW5)): 0
QLRRLQEERTCKVCMDKEVSIVFIPCGHLVVCKDCAPSLRKCPICRSTIKGTVRTF (BIRC3 RING domain (UniProt Q13489)): 0

Set 4 — method: RNA Bind-n-Seq; form: RNA; medium: in vitro; tested at: 365 nM; relative to: no-protein control; reading: higher = stronger binding; quantity: RBNS enrichment (R)
Target: RNA binding protein fox-1 homolog 2, RRM domain, GST-SBP tag (RBFOX2, Homo sapiens, UniProt O43251-10, residues 100-194)
Notes: natural RNA segment, single round, ends assumed
Constant ends, left off below: GGGAGUUCUACAGUCCGACGAUC … UGGAAUUCUCGGGUGCCAA
GAUCCCUACCCAUGGGAAUGCAGAGCCUUCUCCGCAUGUGUGCGUGCAGCUGUGUCUUAUGUAUUUAUAUGUAUGUCGCUCUUCAAAAGCAACCUAGUUUAUGGGGCAGC: 0.817
GUCUGGGCCUGCUUAGCAAGAACCGCUUUAUUCCGGUUCCCAUACCACAUUCAGCCGGCCAGGAGACGAGCACUAGAGGAAAGCAGUAGGAAGGGACUCUAGGAGGUGGC: 0.55
GGGAGGGGUCCAUGACUCCGGGGAAGACGCUUCUCAACGAGGGAUGUGUGGAAAGAAAACAGAAGUGAGAAAGAAGUUACCUUGUAUUAUGUAUUUUUACUACACUUUUC: 0.639
UCUCCCCGCUACUUUGGCAUUGAGGGUUCCCAGACCUUGGGGUUUGCCUACACUUUCUAUGAAUAACAAGUCAUUUCUGGUUUACACUGUCUUUUUAGAGGAAAAGGACU: 0.446
CAGCAUGCUGUGCCGGCACAUCGUGGAGUCCUAGAAACUCUCUAGUCCCUGCGGCUGUUCCCCUCCUCUGCUCUCUCCCUGGAGAGGACUGCCAGCUCUUAAGAAACAUU: 0.999
AUUUGUCCUGGAAUUGUCACGGUGCCUUGGUGUCAGCAGCAGUAACUUGGUGCCAAGGCCAAGAGAGAACAGCCCCUGGUCUGCGUCUGUGUCCCCAAGAGAGAGGCUGA: 0.663
CAAAGCUGUUUUGCAGCUGUUUUCCCUUAAAGAUGUCCUGUUGCUUUAGUGAUAUUUAGACCCCUCUCAGUUAAGAAAUGCUUAGAUUAAAAAAAAAAAAUUACGUAGGA: 0.789
CCACCAUACCCGGCCAAAAAUUUUUGCUUUUAAAGUUAAUGUUAUUUUGUGGUUAAACUUCUAAAGUUUUGAACUGUAAGCAGAAUUUUGUUUUGUGAUAUUUUAUUGUA: 0.641

Set 5 — method: DHFR PCA, deep sequencing; medium: yeast; with: (+)-ABA 710 µM; relative to: wild-type fitted maximum; reading: higher = stronger binding; quantity: relative binding score
Target: ABI1, truncated, D143A, DHFR fusion (Arabidopsis thaliana)
Notes: methotrexate growth selection, single substitutions
Starting sequence: PYL1, truncated, DHFR fusion (Arabidopsis thaliana); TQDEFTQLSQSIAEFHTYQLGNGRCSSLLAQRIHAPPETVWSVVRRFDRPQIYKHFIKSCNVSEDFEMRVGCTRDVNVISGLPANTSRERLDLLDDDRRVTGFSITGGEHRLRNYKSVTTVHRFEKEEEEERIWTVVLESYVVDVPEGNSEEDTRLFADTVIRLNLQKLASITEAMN; partner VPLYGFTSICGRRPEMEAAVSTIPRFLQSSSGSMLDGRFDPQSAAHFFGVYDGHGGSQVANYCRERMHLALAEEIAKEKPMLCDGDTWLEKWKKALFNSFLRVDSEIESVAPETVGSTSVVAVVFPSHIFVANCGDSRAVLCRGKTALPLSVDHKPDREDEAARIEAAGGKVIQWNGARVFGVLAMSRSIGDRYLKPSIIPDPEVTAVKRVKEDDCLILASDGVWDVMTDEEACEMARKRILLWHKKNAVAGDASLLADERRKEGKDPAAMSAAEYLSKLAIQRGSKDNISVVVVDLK
R46T: 88.4%
R113L: 102%
E109D: 115%
E151M: 101%
V118M: 107%
V118Q: 70.3%
D144K: 78.9%
T73G: 87.5%
T106F: 111%
I79S: 103%
V100W: 52.4%
T106P: 49.6%
Y53H: 99.6%
P146C: 83.9%
F66E: 98.1%
R24V: 95.8%
R155G: 75%
E109K: 100%
N165A: 37.5%
R113I: 101%
R45D: 5.39%
I52P: 61.3%
T39M: 97.1%
F124M: 113%
T154D: -15.3%

Repeated from above (set 3):
B4 (TRIM69 RING domain): 0
FPEHFVKSISCQICEHILADPVETNCKHVFCRVCILRCLKVMGSYCPSCRYPCFPTDLES (RAG1 RING domain (UniProt P15918)): 0
YWAMDSTFELCKICAESNKDVKIEPCGHLLCSCCLAAWQHSDSQTCPFCRCEIKGWEAVS (CBLC RING domain (UniProt Q9ULV8)): 0
RLTMMWEEVTCPICLDPFVEPVSIECGHSFCQECISQVGKGGGSVCPVCRQRFLLKNLRP (TRIM21 RING domain (UniProt P19474)): 0
